Assay results of several laboratories.
Each line is one published result; not all experiments were run side by side. “And” joins repeats or separate records; there may be more than shown.
Target: Serine/threonine-protein kinase PLK4 (PLK4, Homo sapiens, UniProt O00444)

Compound = C=CC(=O)N1Cc2nc(-c3cc(-c4cc(Cl)cnc4Cl)c(F)cc3F)n(-c3ccncn3)c2C1; test = cell-free assay, inhibitor; setting = 1 µM; endpoint = inhibition; value = -3.9%
Compound = NC(=O)[C@@H](O)C[C@H]1CCc2sc3ncnc(O[C@H]4CC[C@H](N5CCOCC5)CC4)c3c21; test = enzyme activity, inhibitor; setting = 10 µM; endpoint = inhibition; value = 3%
Compound = C=CC(=O)Nc1cccc(-c2cnc3[nH]cc(C(=O)NC(C)(C)C)c3n2)c1; test = enzyme activity, inhibitor; setting = 0.1 µM; endpoint = inhibition; value = 12%
Compound = CNC1C[S+]2CC[S+]3CC[S+](C1)[Ru-4]321([N]=C=S)[n]2c3ccc(OC)cc3c3c4c(c5cc(F)c[n+]1c5c32)C(=O)NC4=O (stereo not shown); test = KinomeScan; setting = 0.1 µM; how to read = baseline: untreated; endpoint = remaining binding; value = 53%
Compound = COCC12C(=O)NC3C4(C(OC)CC1O)C1CC5(O)C(OC)C(O)C(OC(C)=O)(C1C5OC(=O)c1ccccc1)C3(O)C(OC)C24 (stereo not shown); test = kinase activity, inhibitor, ProQinase kinase profiling; setting = 25 µM; how to read = baseline: control; endpoint = remaining activity; value = 64% and 72%
Compound = C=C1CCCCCCCCCC(CO)C1=O (stereo not shown); test = cell-free assay, competition with immobilised ligand; setting = 10 µM; endpoint = remaining binding; value = 53%
Compound = COc1cc(Nc2nc(C)cc(-c3cnn4nc(OC)ccc34)n2)cc(C(F)(F)F)c1; test = inhibitor; setting = 1 µM; how to read = baseline: control; endpoint = remaining activity; value = 49%
Compound = CC(=O)N1c2ccc(-c3ccc(CNC(=O)c4cn5cc(-c6cnc(N)nc6)nc(N6CCOCC6)c5n4)cc3)cc2CC[C@@H]1C; test = KINOMEscan; setting = 10 µM; endpoint = remaining binding; value = 91%
Compound = C=CC(=O)N1CCCC(n2c(=O)c3ncccc3n(Cc3ccc(Oc4ccccc4)cc3)c2=O)C1 (stereo not shown); test = cell-free assay, competition with immobilised ligand; setting = 1 µM; endpoint = remaining binding; value = 94%
Compound = Cc1cccc(O[C@H]2CCC[C@@H](C(C)CNCc3ccncc3)C2)c1 (relative stereo); test = enzyme activity, inhibitor; setting = 1 µM; endpoint = inhibition; value = -7%
Compound = CNC(=O)C1CCN(c2cc(C)c(F)cc2NC(=O)c2ccc(-c3cc(O)ccc3C)c(C)c2)CC1; test = binding, competition with immobilised ligand; setting = 1 µM; endpoint = remaining binding; value = 94%
Compound = CC(C)=CC1OC(C)(C)C2C=C3C(=O)C(Cl)=CC(O)C3C3C(O)C4OC4C(=O)C132 (stereo not shown); test = cell-free assay, competition with immobilised ligand; setting = 10 µM; endpoint = remaining binding; value = 89%
Compound = CCn1cc(C(=O)O)c(=O)c2c(N)c(F)c(NC3CCCCC3)cc21; test = kinase activity; setting = 0.1 µM, added: ATP at Km; endpoint = inhibition; value = 1.7%
Compound = COc1c(Cl)cccc1Nc1c(-c2ccncc2C#C[C@@]2(C)CCCN2C(=O)/C=C/CN(C)C)[nH]c2c1C(=O)NCC2; test = binding, competition with immobilised ligand; setting = 3 µM; endpoint = remaining binding; value = 91%
Compound = Nc1ncc2c(n1)-c1c([nH]c3ccc(C4=CCOCC4)cc13)CCC2; test = binding, competition with immobilised ligand; setting = 1 µM; endpoint = remaining binding; value = 91%
Compound = CN1CCN(Cc2ccc(NC(=O)c3cccc(C#Cc4cnc(N)c5ncccc45)c3)cc2C(F)(F)F)CC1; test = cell-free assay, competition with immobilised ligand; setting = 50 nM; endpoint = remaining binding; value = 71%

A few entries again:
Compound = CNC(=O)C1CCN(c2cc(C)c(F)cc2NC(=O)c2ccc(-c3cc(O)ccc3C)c(C)c2)CC1; test = binding, competition with immobilised ligand; setting = 1 µM; endpoint = remaining binding; value = 94%
Compound = CC(C)=CC1OC(C)(C)C2C=C3C(=O)C(Cl)=CC(O)C3C3C(O)C4OC4C(=O)C132 (stereo not shown); test = cell-free assay, competition with immobilised ligand; setting = 10 µM; endpoint = remaining binding; value = 89%
